Measurements of several laboratories.
Each line is one published result; not all experiments were run side by side. “And” joins repeats or separate records; there may be more than shown. ± marks the error that the study gave. Converted amounts (≈) assume the structure as drawn.

`[Cl-].[Cl-].[Pt+2].[Ru+2].c1ccc(-c2nc3ccccc3nc2-c2ccccn2)nc1.c1cnc2c(c1)ccc1cccnc12.c1cnc2c(c1)ccc1cccnc12` gave a survival rate of 100% (Danio rerio; embryos; 30 µM, 0 h).
`CC(C)N(C)N=O` — result for “revertant colonies per plate”: 142 ± 14 (Escherichia coli; mutagenicity, Ames plate incorporation; WP2 uvrA pKM101; 150 µg/plate, 3 d, without S9, methanol).
For `O=[N+]([O-])c1ccc(N2CCC(NCCC(O)c3ccc(F)c4ccccc34)CC2)c(C(F)(F)F)c1` (stereo not shown), the survival was 107% (Salmonella typhimurium; SOS/umu test; TA1535/pSK1002; 0.004 mg/mL, 4 h, with S9, lower range).
For `O=NN1CCN(C2CCCC2)CC1`, “revertant colonies per plate” read 116 ± 19 (Escherichia coli; mutagenicity, Ames plate incorporation; WP2 uvrA pKM101; 50 µg/plate, 3 d, without S9, methanol).
For `CC(=O)N1CCC(C(=O)N2CCN3C(=O)c4cc(-c5ccccc5)ccc4NC(=O)C3C2)CC1` (stereo not shown), “fold increase in revertants” read 1.4 (Salmonella typhimurium; TA98; 1581 µg/plate; relative to: vehicle).
The survival rate of `[Cl-].[Cl-].[Pt+2].[Ru+2].c1ccc(-c2nccnc2-c2ccccn2)nc1.c1cnc2c(c1)ccc1cccnc12.c1cnc2c(c1)ccc1cccnc12` is reported as 70 ± 1.6% (Danio rerio; embryos; 45 µM, 72 h).
The selectivity index of `CC1(F)CN(C(=O)Cn2c(=O)c(C(=O)NCc3ccc(Cl)cc3)cc3nc(N4CCNC4=O)cnc32)C1` is reported as > 46.9 (herpes simplex virus 2; cytopathic effect; G; relative to: CC50 over EC50).
For `COc1cccc(-c2n[nH]c(SCc3ccccn3)n2)c1OC`, “revertant colonies per plate” read 14 (Salmonella typhimurium; Ames test, plate incorporation; TA1535; 0.13 mg/plate, with rat liver S9).
For `Nc1nc2c(ncn2COCCO)c(=O)[nH]1`, the therapeutic index was 4.85 (herpes simplex virus 2; RT-qPCR; HeLa, compound-resistant; relative to: CC50 over IC50).
`COc1cnc(OC)n2nc(NS(=O)(=O)c3c(OCC(F)F)cccc3C(F)(F)F)nc12`: bud growth “inhibited” (Triticum aestivum; inhibited, hydroponic germination; seedlings; 50 µg/mL, 4 days).
With `O=c1oc2c(O)c(O)cc3c(=O)oc4c(O)c(O)cc1c4c23` the LC50 was 159 mg/L (≈ 527 µM) (Artemia salina; seawater; 24 h, nauplii).
For `O=C(O)C(F)(OC(F)(F)C(F)(F)C(F)(F)F)C(F)(F)F` (stereo not shown), the concentration was 188 µM (Caenorhabditis elegans; LC-MS/MS; N2 L4 larvae, exposure medium supernatant; 500 µM, 48 h).
For `Cc1cc(C(=O)NC(C)(C)COc2cccc3c2C(N)=NS(=O)(=O)N3)cc(C)n1`, the revertant ratio was 1 (Salmonella typhimurium; Ames test, initial; TA1535; 1500 µg/plate; relative to: solvent control).
`C[C@@H]1O[C@@H](OC[C@H]2O[C@@H](Oc3c(-c4ccc(O)c(O)c4)oc4cc(O)cc(O)c4c3=O)[C@H](O)[C@@H](O)[C@@H]2O)[C@H](O)[C@H](O)[C@H]1O` has an LC50 of 621 mg/L (≈ 1020 µM) (Artemia salina; seawater; 24 h, nauplii).
`COCCN(CCOC)N=O`: “revertant colonies per plate” 144 ± 19 (Escherichia coli; mutagenicity, Ames plate incorporation; WP2 uvrA pKM101; 5000 µg/plate, 3 d, without S9, methanol).
With `Cc1c(Cl)c(=O)oc2cc(OCCCC[Se]C#N)ccc12` the developmental defects was 0% (Caenorhabditis elegans; N2 Bristol, NGM with E. coli OP50; 5 µM, 3 days).
`CC(C)C[C@H](NC(=O)[C@H](Cc1c[nH]cn1)NC(=O)[C@H](Cc1c[nH]cn1)NC(=O)[C@H](Cc1ccc(O)cc1)NC(=O)[C@@H](N)CS)C(=O)N[C@H](C(=O)N[C@@H](CC(C)C)C(=O)N[C@H](C(=O)N[C@H](C(=O)NCC(=O)NCC(=O)N[C@@H](CO)C(=O)O)C(C)C)[C@@H](C)O)C(C)C` has a body weight of 20.9 g and 20.5 g and 21.8 g (Epstein-Barr virus; B-NDG humanized mouse, EBV-infected; 20 mg/kg, day 14).
The internal concentration of `O=C(O)C(F)(F)C(F)(F)C(F)(F)C(F)(F)C(F)(F)C(F)(F)C(F)(F)F` is reported as 46.9 µM (Caenorhabditis elegans; LC-MS/MS; N2 L4 larvae, worm pellet; 500 µM, 48 h).
The LC50 of `O=C1O[C@H]2[C@@H]3OC(=O)c4cc(O)c(O)c(O)c4-c4c(O)c(O)c5oc(=O)c6c(c(O)c(O)c7oc(=O)c4c5c76)-c4c(cc(O)c(O)c4O)C(=O)OC[C@H]3OC(O)[C@@H]2OC(=O)c2cc(O)c(O)c(O)c2-c2c1cc(O)c(O)c2O` (mixture of isomers) is reported as 820 mg/L (Artemia salina; seawater; 24 h, nauplii).
With `OC(CCN1CC=C(c2ccc(F)cc2)CC1)c1ccc(F)c2ccccc12` (stereo not shown) the survival was 114% (Salmonella typhimurium; SOS/umu test; TA1535/pSK1002, TGA medium; 0.000488 mg/mL, 4 h, added: 10% rat liver S9).
For `CN(CC(C)(C)C)N=O`, “revertant colonies per plate” read 163 and 136 (Escherichia coli; plate incorporation; WP2uvrA pKM101, methanol; 5000 µg/plate, without S9).
The LC50 of `Oc1cc(O)c2c(c1)O[C@H](c1cc(O)c(O)c(O)c1)[C@@H](O)C2` is reported as 594 mg/L (≈ 1940 µM) (Artemia salina; seawater; 24 h, nauplii).

Excerpt of the above:
For `O=[N+]([O-])c1ccc(N2CCC(NCCC(O)c3ccc(F)c4ccccc34)CC2)c(C(F)(F)F)c1` (stereo not shown), the survival was 107% (Salmonella typhimurium; SOS/umu test; TA1535/pSK1002; 0.004 mg/mL, 4 h, with S9, lower range).
For `O=NN1CCN(C2CCCC2)CC1`, “revertant colonies per plate” read 116 ± 19 (Escherichia coli; mutagenicity, Ames plate incorporation; WP2 uvrA pKM101; 50 µg/plate, 3 d, without S9, methanol).
For `CC(=O)N1CCC(C(=O)N2CCN3C(=O)c4cc(-c5ccccc5)ccc4NC(=O)C3C2)CC1` (stereo not shown), “fold increase in revertants” read 1.4 (Salmonella typhimurium; TA98; 1581 µg/plate; relative to: vehicle).
